Experimental data from different studies.
Protocols differ between the studies behind these lines. Numbers after ± are the reported error.
relA residues 53-446: relA, residues 53-446 (Mycobacterium tuberculosis, UniProt P9WHG9)
Chain of UniProt P9WHG9 (53-446, looked up): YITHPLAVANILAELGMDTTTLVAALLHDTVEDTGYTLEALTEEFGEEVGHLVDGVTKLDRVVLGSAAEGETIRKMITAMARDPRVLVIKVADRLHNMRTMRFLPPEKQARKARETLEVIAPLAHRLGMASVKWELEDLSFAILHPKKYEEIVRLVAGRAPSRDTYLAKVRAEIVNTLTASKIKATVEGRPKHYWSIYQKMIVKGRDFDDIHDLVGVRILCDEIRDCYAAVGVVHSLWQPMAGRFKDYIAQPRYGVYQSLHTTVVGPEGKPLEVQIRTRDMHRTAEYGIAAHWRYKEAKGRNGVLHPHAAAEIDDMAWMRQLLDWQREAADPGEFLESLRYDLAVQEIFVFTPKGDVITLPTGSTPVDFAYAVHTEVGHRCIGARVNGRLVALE
CNR1: Cannabinoid receptor 1 (CNR1, Homo sapiens, UniProt P21554)
Chain of UniProt P21554 (whole entry, unmodified, looked up): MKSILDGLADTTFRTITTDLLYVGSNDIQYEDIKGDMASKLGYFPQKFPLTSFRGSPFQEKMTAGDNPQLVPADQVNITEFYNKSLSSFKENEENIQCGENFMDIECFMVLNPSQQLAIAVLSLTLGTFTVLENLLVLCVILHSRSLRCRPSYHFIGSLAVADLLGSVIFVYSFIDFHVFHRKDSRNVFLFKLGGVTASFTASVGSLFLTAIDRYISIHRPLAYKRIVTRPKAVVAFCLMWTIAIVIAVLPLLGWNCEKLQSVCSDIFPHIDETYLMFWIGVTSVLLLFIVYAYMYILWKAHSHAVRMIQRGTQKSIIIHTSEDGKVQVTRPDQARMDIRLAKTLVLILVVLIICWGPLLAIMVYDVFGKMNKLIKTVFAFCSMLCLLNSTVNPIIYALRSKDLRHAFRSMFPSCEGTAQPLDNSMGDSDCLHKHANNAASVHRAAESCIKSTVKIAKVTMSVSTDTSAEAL
HCK Q523E/Q524E/Q525I: Tyrosine-protein kinase HCK (HCK, Homo sapiens, UniProt P08631, Q523E/Q524E/Q525I)
Chain of UniProt P08631 (whole entry, unmodified, looked up): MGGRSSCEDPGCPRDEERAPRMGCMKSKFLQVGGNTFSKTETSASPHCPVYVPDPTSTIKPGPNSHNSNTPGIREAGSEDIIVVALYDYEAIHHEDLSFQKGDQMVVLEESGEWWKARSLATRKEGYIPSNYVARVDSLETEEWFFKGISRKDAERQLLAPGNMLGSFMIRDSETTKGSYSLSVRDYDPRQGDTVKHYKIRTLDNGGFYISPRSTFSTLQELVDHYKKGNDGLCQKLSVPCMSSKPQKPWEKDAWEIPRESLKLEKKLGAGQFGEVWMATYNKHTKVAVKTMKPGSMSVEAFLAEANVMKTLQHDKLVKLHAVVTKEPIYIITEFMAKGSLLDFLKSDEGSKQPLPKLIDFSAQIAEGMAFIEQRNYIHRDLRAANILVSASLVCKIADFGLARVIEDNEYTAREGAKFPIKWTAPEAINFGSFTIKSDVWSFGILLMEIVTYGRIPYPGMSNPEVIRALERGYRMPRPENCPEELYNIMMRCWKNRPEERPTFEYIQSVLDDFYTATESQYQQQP
Chain of UniProt Q01959 (whole entry, unmodified, looked up): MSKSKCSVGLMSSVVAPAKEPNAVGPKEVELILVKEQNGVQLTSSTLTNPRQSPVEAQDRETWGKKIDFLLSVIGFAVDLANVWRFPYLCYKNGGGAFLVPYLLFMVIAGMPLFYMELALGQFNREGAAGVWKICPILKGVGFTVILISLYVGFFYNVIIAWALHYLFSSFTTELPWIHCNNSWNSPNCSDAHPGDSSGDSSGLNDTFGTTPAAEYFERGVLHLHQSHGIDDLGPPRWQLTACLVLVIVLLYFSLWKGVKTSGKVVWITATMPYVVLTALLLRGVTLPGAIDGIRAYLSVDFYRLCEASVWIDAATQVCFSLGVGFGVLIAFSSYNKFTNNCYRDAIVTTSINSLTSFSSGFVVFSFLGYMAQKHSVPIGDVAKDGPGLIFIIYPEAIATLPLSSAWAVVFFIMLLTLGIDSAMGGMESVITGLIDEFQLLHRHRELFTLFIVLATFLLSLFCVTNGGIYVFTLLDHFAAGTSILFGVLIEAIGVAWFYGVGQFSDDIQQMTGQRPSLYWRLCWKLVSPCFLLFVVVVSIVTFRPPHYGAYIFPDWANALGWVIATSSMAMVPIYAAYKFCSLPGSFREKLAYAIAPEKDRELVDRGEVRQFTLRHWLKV
Chain of UniProt Q8VJU4 (whole entry, looked up): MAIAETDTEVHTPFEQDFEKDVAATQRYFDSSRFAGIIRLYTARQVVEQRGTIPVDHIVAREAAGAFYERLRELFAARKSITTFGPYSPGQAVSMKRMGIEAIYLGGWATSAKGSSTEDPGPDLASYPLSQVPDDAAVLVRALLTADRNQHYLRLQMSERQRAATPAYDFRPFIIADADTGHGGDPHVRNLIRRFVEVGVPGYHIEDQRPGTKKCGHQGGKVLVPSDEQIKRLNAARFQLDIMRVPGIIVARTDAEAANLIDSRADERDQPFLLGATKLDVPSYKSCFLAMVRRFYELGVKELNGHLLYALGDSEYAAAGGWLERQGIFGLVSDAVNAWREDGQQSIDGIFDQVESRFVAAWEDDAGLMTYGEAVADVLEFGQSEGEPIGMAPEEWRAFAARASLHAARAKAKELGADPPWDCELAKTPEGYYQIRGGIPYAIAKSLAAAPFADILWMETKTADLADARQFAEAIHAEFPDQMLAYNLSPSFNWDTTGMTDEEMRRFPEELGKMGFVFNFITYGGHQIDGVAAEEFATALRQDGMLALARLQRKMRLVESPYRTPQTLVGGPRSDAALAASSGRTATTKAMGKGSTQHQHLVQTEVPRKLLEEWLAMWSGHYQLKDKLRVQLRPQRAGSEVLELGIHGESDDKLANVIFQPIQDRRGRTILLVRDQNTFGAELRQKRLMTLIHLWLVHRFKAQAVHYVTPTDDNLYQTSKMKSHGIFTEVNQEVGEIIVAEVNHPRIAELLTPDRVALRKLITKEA
Chain of UniProt P41143 (whole entry, unmodified, looked up): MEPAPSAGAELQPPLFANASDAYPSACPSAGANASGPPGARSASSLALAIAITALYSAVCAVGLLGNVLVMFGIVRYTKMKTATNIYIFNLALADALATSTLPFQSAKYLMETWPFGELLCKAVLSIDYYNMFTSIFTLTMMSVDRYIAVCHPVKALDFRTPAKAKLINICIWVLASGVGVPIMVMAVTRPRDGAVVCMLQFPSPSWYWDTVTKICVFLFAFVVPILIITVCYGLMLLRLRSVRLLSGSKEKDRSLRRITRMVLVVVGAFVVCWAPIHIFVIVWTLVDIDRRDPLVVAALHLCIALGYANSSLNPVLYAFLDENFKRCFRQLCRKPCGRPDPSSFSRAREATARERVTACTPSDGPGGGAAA
Chain of UniProt P13128 (whole entry, looked up): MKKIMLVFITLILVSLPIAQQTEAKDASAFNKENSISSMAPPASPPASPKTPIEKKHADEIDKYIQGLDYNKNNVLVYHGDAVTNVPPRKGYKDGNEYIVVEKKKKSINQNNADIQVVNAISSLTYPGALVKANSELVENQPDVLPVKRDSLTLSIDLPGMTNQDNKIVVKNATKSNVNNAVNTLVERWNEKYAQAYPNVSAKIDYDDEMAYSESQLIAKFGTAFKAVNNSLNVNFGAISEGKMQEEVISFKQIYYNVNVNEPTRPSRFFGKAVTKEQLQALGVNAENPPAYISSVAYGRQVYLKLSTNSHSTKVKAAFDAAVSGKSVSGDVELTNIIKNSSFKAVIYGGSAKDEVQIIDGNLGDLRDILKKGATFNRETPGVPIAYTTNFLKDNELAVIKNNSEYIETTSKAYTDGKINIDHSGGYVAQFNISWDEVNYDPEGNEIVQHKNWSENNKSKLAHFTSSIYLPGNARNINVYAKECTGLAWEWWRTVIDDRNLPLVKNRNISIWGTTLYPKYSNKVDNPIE
Chain of UniProt P30872 (whole entry, looked up): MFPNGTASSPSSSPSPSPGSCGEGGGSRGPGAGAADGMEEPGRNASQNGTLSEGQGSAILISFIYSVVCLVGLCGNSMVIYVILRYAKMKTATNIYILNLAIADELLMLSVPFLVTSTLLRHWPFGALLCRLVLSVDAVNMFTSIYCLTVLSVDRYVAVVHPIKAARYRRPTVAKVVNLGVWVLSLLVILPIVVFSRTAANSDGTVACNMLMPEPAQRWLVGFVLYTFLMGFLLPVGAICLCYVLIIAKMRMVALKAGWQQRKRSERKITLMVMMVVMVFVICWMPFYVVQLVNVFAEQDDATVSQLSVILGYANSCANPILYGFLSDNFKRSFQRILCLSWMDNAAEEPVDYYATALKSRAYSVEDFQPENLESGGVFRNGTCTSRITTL
Chain of UniProt P18089 (whole entry, looked up): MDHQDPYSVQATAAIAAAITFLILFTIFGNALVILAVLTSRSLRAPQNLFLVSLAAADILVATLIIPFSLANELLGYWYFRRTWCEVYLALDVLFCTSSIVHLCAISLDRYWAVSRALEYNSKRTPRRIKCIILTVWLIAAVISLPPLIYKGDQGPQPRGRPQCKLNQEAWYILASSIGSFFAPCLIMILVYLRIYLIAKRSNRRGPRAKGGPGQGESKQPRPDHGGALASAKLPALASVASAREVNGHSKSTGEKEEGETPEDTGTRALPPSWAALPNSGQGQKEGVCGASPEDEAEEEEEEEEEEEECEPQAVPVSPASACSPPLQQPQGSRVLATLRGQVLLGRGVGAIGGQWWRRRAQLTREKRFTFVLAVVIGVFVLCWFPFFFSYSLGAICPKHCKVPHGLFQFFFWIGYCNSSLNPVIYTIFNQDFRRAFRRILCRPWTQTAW
Chain of UniProt P43220 (whole entry, looked up): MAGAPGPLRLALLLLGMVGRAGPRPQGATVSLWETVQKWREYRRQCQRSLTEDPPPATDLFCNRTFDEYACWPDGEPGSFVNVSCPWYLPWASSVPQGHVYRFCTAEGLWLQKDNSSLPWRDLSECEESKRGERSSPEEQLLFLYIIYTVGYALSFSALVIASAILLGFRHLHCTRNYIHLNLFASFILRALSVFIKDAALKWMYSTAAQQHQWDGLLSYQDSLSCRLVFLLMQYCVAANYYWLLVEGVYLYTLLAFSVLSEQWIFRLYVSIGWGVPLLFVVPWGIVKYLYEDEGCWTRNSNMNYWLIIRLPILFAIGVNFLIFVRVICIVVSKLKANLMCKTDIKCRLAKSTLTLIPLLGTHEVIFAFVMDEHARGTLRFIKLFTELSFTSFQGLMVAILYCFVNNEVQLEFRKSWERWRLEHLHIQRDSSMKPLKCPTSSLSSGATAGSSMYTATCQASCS

`CN(C)CC1CN(S(=O)(F)=Nc2cc(Cl)c(C(=O)N3CCO[C@@H](c4ccccc4)C3)c(Cl)c2)C1` (stereo partly drawn) gave a Kd of 0.019 µM (Hemagglutinin (Influenza A virus, UniProt A4GBW6); binding).
`CCC[C@@H](C(=O)c1ccccc1)N1CCCC1` gave a Ki of 0.012 µM (SLC6A3 (Homo sapiens, UniProt Q01959); dopamine uptake, inhibitor; HEK293 transiently transfected; DAT S149A/S429G mutant, together with: [3H]dopamine).
For `Cc1ccc2c(C(C[N+](=O)[O-])c3cccs3)c(-c3ccccc3)[nH]c2c1` (stereo not drawn), the EC50 was 0.21 µM (CNR1 (Homo sapiens, UniProt P21554, V171A); β-arrestin recruitment, agonist, luciferase).
The IC50 of `COc1ccc(CN2CCN(c3nc(C)ccc3C(=O)OC(C)C)CC2)cc1Cl` is reported as 12.6 µM (relA residues 53-446; enzyme activity, inhibitor, fluorescence polarization).
The Kd of `CC(=O)NC1C(OC2C(CO)OC(OC3C(CO)OC(O)C(O)C3O)C(O)C2OC2(C(=O)O)CC(O)C(NC(C)=O)C(C(O)C(CO)OC3(C(=O)O)CC(O)C(NC(C)=O)C(C(O)C(CO)OC4(C(=O)O)CC(O)C(NC(C)=O)C(C(O)C(O)CO)O4)O3)O2)OC(CO)C(O)C1O` (stereo not drawn) is reported as 0.0019 µM (hly (Listeria monocytogenes, UniProt P13128); binding).
With `CCCCCn1cc(C(=O)c2ccc3ccccc3c2)c2ccccc21` the EC50 was 0.0741 µM (CNR1; Gαi1 activation, agonist, BRET).
The Ki of `CC(C)n1nc(-c2ccc3cc(OCc4cccc(Cl)c4)ccc3c2)c2c(N)ncnc21` is reported as 1.34 µM (HCK (Homo sapiens, UniProt P08631, Y522F)).
With `CCCCCn1cc(C(=O)c2ccc3c(c2)CC(C)(C)C3)c2ccccc21` the EC50 was 0.562 µM (CNR1; cAMP, agonist).
The EC50 of `COc1ccccc1C(C[N+](=O)[O-])c1c(-c2ccccc2)[nH]c2ccccc12` (stereo not drawn) is reported as over 1000 µM (CNR1 (Homo sapiens, UniProt P21554, W241A); G protein activation, agonist, BRET).
`CC(=O)SCCNC(=O)CCNC(=O)[C@H](O)C(C)(C)COP(=O)(O)OP(=O)(O)OC[C@H]1O[C@@H](n2cnc3c(N)ncnc32)[C@H](O)[C@@H]1OP(=O)(O)O` has a Kd of 39 ± 3 µM (icl2 (Mycobacterium tuberculosis, UniProt Q8VJU4)).
With `CCCCCn1cc(C(=O)c2cccc3c2CC(C)(C)C3)c2ccccc21` the EC50 was 0.631 µM (CNR1 (Homo sapiens, UniProt P21554, F174A); G protein activation, agonist, BRET).
`CC[C@H](C)[C@H](NC(=O)[C@H](CC(C)C)NC(=O)[C@H](CC(=O)O)NC(=O)[C@H](CCC(=O)O)NC(=O)[C@@H](NC(=O)[C@@H]1CC=NN1C(=O)[C@H](C)NC(=O)[C@H](CC(=O)O)NC(=O)[C@H](CC(=O)O)NC(=O)CNC(=O)[C@@H]1CCCN1C(=O)[C@H](Cc1ccc(O)cc1)NC(=O)[C@@H]1CC=NN1C(=O)[C@@H]1CCCN1C(=O)[C@@H]1CC=NN1C(=O)[C@H](CO)NC(=O)[C@@H]1CCCN1C(=O)CN)C(C)C)C(=O)N[C@@H](CCCNC(=N)N)C(=O)N[C@@H](Cc1ccccc1)C(=O)N[C@@H](Cc1ccc(O)cc1)C(=O)N[C@@H](CC(=O)O)C(=O)N[C@@H](CC(N)=O)C(=O)N[C@@H](CC(C)C)C(=O)N[C@@H](CCC(N)=O)C(=O)N[C@@H](CCC(N)=O)C(=O)N[C@@H](Cc1ccc(O)cc1)C(=O)N[C@@H](CC(C)C)C(=O)N[C@@H](CC(N)=O)C(=O)N[C@H](C(=O)N[C@H](C(=O)N[C@H](C(=O)N[C@@H](CCCNC(=N)N)C(=O)N[C@@H](Cc1c[nH]cn1)C(=O)N[C@@H](CCCNC(=N)N)C(=O)N[C@@H](Cc1ccc(O)cc1)C(N)=O)[C@@H](C)O)C(C)C)C(C)C` gave a Kd of 58.2 µM (avian pancreatic polypeptide dimer; monomer-dimer association, sedimentation equilibrium ultracentrifugation; pH 8.0, 25 °C).
`CCCCCn1cc(C(=O)c2cccc3ccccc23)c2ccccc21` gave an EC50 of 0.0017 µM (CNR1; cAMP, agonist).
`CCN(CC)C(=O)[C@@H]1C=C2c3cccc4c3c(cn4C(=O)c3ccco3)C[C@H]2N(C)C1` has a Ki of over 10 µM (ADRA2B (Homo sapiens, UniProt P18089); ligand displacement, radioligand).
`CC(C)n1nc(-c2ccc3cc(OCc4ccccc4)ccc3c2)c2c(N)ncnc21` has a Ki of 0.06 µM (HCK Q523E/Q524E/Q525I; enzyme activity, inhibitor).
`COc1cc(C2C(NC(=O)c3ccc(NC(=O)OC(C)(C)C)cc3)(C(=O)O)C(c3ccc(OC(=O)c4cccs4)c(OC)c3)C2(NC(=O)c2ccc(NC(=O)OC(C)(C)C)cc2)C(=O)O)ccc1OC(=O)c1cccs1` (stereo not drawn) has a Ki of 1.02 µM (GLP1R (Homo sapiens, UniProt P43220); binding).
With `O=[N+]([O-])CC(c1ccco1)c1c(-c2ccccc2)[nH]c2ccccc12` (stereo not drawn) the EC50 was 1.27 µM (CNR1 (Homo sapiens, UniProt P21554, I245A); G protein activation, agonist, BRET).
The Ki of `CC(C)(C)n1nc(-c2ccc(Cl)cc2)c2c(N)ncnc21` is reported as 0.043 µM (SRC (Gallus gallus, UniProt P00523, Y527F); enzyme activity, inhibitor).
For `CCCc1ccc(-c2cccc(-c3nc4ccc5cc(C(=O)O)cc(O)c5c4[nH]3)c2)cc1`, the IC50 was 3.98 µM (relA residues 53-446; enzyme activity, inhibitor, fluorescence polarization).
For `Nc1ncnc2c1c(-c1ccc(Oc3ccccc3)cc1)nn2C1CCCC1`, the Ki was 0.017 µM (HCK Q523E/Q524E/Q525I; enzyme activity, inhibitor).
`CCN(CC)C(=O)c1ccc(C(c2cccc(O)c2)N2CC(C)N(Cc3ccccc3)CC2C)cc1` (stereo not drawn) has a Ki of 0.00026 ± 2e-05 µM (OPRD1 (Homo sapiens, UniProt P41143, G73V)).
For `C=CC(=O)N1CCC[C@@H](n2nc(-c3ccc(Cl)cc3)c3c(N)ncnc32)C1`, the Ki was under 0.006 µM (HCK (Homo sapiens, UniProt P08631, S340C)).
`CSCC[C@H](NC(=O)[C@@H]1CSSC[C@H](NC(=O)[C@H](CCCCN)NC(=O)[C@H](Cc2ccc(O)cc2)NC(=O)CNC(=O)[C@@H](N)CC(C(=O)O)C(=O)O)C(=O)N[C@@H](C(C)C)C(=O)N[C@H](Cc2c[nH]c3ccccc23)C(=O)N[C@@H](CCCCN)C(=O)N[C@@H]([C@@H](C)O)C(=O)N1)C(=O)N1C[C@H](O)C[C@H]1C(=O)N[C@@H](C)C(=O)O` gave an EC50 of 2.88 µM (SSTR1 (Homo sapiens, UniProt P30872); β-arrestin recruitment, agonist).
For `CC(C)CC(C(=O)N1CC2(CC1C#N)C(=O)Nc1ccccc12)N(C)C(=O)c1cc2c(F)cc(F)c(F)c2[nH]1` (stereo not drawn), the IC50 was over 100 µM (Caspase-10 (CASP10, Homo sapiens, UniProt Q92851); enzyme activity, inhibitor).
